Experimental data of several laboratories.
Numbered parts are unrelated; each lists some results of a single study.

Block 1 — technique: logD(dd/w) and ALogP; setting: JT method
| Compound | lipophilic permeability efficiency |
| --- | --- |
| CC(C)C[C@@H]1NC(=O)[C@H](C)NC(=O)[C@@H](CC(C)C)NC(=O)[C@H](C)NC(=O)[C@H](C)NC(=O)[C@H](CC(C)C)NC(=O)[C@@H](CC(C)C)NC1=O | 2 |
| CC(C)C[C@@H]1NC(=O)[C@H](C(C)C)NC(=O)[C@H](Cc2cscn2)NC(=O)[C@H](CCC(=O)N2CCCC2)NC(=O)[C@@H](CCC(=O)N2CCCC2)NC(=O)[C@H](CC(C)C)NC(=O)[C@@H](CC(C)C)NC1=O | 1.78 |
| CC(C)C[C@@H]1NC(=O)[C@H](CC(C)C)NC(=O)[C@@H](CC(C)C)NC(=O)[C@H](C(C)C)NC(=O)[C@H](C)NC(=O)[C@H](C)NC(=O)[C@H](CCC(=O)N2CCCC2)NC1=O | 1.33 |
| CC(C)C[C@@H]1NC(=O)[C@H](CC(C)C)NC(=O)[C@H](CC(C)C)NC(=O)[C@H](Cc2cscn2)NC(=O)[C@@H](Cc2cscn2)NC(=O)[C@@H](CC(C)C)NC(=O)[C@H](C)NC1=O | 2.79 |
| CC(C)C[C@@H]1NC(=O)[C@H](C)NC(=O)[C@H](Cc2cscn2)NC(=O)[C@H](CC(C)C)NC(=O)[C@H](C(C)C)NC(=O)[C@H](CC(C)C)NC(=O)[C@@H](CC(C)C)NC1=O | 1.86 |
| CC(C)C[C@@H]1NC(=O)[C@H](CC(C)C)NC(=O)[C@@H](C(C)C)NC(=O)[C@H](CC(C)C)NC(=O)[C@@H](Cc2cscn2)NC(=O)[C@H](CCC(=O)N2CCCC2)NC(=O)[C@H](C)NC1=O | 1.36 |

Block 2 — concentration: 1 µM; reference: DMSO
SMILES: Cl.Cl.NC1(c2ccc(-c3nc4ccn5c(=O)[nH]nc5c4cc3-c3ccccc3)cc2)CCC1
| cell line | setting | viability [%] |
| --- | --- | --- |
| sample B colorectal tumour organoid | replicate 2 | 60.9 |
| sample B colorectal tumour organoid | replicate 1 | 67.5 |
| sample C colorectal tumour organoid | replicate 1 | 98.7 |
| sample C colorectal tumour organoid | replicate 2 | 82.9 |
| colorectal tumour organoids |  | 66.3 |
| sample BA colorectal tumour organoid |  | 57.9 |

Block 3 — read-out: enzyme activity; mode: inhibitor; concentration: 10 µM
Target: Calcium/calmodulin-dependent protein kinase type II subunit alpha (CAMK2A, Homo sapiens, UniProt Q9UQM7)
Chain of UniProt Q9UQM7 (whole entry, looked up): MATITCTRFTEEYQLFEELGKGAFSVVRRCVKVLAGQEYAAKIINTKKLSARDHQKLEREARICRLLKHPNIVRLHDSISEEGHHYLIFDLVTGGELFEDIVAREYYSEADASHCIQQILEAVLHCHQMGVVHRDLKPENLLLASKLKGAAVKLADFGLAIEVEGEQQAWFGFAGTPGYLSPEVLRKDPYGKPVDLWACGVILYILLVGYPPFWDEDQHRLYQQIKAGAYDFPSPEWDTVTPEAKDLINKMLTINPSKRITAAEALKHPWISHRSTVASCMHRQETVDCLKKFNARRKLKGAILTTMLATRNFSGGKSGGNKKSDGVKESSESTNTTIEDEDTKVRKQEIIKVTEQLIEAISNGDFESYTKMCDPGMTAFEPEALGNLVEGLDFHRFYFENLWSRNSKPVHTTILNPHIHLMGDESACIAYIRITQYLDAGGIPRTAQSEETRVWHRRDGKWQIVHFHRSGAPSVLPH
| SMILES | inhibition [%] |
| --- | --- |
| CO[C@H]1C(=O)[C@]2(C)[C@@H](OC)C[C@H]3OC[C@@]3(OC(C)=O)[C@H]2[C@H](OC(=O)c2ccccc2)[C@]2(O)C[C@H](OC(=O)[C@H](O)[C@@H](NC(=O)OC(C)(C)C)c3ccccc3)C(C)=C1C2(C)C | 3 |
| N[C@@H](CCSSCC[C@H](N)C(=O)O)C(=O)O | 2 |
| COc1cc2c(cc1O)CCN1Cc3c(ccc(OC)c3OC)CC21 (stereo not shown) | 45 |
| CN[C@H](CC(C)C)C(=O)N[C@H]1C(=O)N[C@@H](CC(N)=O)C(=O)N[C@H]2C(=O)N[C@H]3C(=O)N[C@H](C(=O)N[C@H](C(=O)O)c4cc(O)cc(O)c4-c4cc3ccc4O)[C@H](O[C@H]3C[C@](C)(N)[C@@H](O)[C@H](C)O3)c3ccc(c(Cl)c3)Oc3cc2cc(c3O[C@@H]2O[C@H](CO)[C@@H](O)[C@H](O)[C@H]2O[C@H]2C[C@](C)(NCc3ccc(-c4ccc(Cl)cc4)cc3)[C@@H](O)[C@H](C)O2)Oc2ccc(cc2Cl)[C@H]1O | -1 |
| C=C1CCN([C@H](C)[C@](O)(Cn2cncn2)c2ccc(F)cc2F)CC1 | -8 |
| CCCCCCCCCCCCC/C=C/[C@@H](O)[C@@H](N)CO | -32 |

Block 4 — organism: Sarcocystis neurona; read-out: parasite growth; concentration: 10 µM; setting: secondary screen
| Compound | inhibition [%] |
| --- | --- |
| Oc1ccc(C2CNCCc3c2cc(O)c(O)c3Cl)cc1 (stereo not shown) | -47.2 |
| CC(C)[N+]1(C)[C@@H]2CC[C@H]1CC(OC(=O)C(CO)c1ccccc1)C2.[Br-] (stereo partly shown) | -23.6 |
| C[C@@H]1CN(CCCn2c3ccccc3c3ccccc32)C[C@H](C)N1 | 0.249 |
| N[C@@H](C(=O)N[C@@H]1C(=O)N2C(C(=O)O)=C(Cl)CS[C@H]12)c1ccccc1 | -44.8 |
| CCC(=O)O[C@]1(C(=O)CCl)[C@@H](C)C[C@H]2[C@@H]3CCC4=CC(=O)C=C[C@]4(C)[C@@]3(F)[C@@H](O)C[C@@]21C | -9 |
| CC1(C)O[C@@H]2C[C@H]3[C@@H]4C[C@H](F)C5=CC(=O)C=C[C@]5(C)[C@H]4[C@@H](O)C[C@]3(C)[C@]2(C(=O)CO)O1 | -32.4 |
| CCCOc1ccc(C(=O)OCCN(CC)CC)cc1N | -28.1 |

A few entries again (block 3):
| SMILES | inhibition [%] |
| --- | --- |
| CN[C@H](CC(C)C)C(=O)N[C@H]1C(=O)N[C@@H](CC(N)=O)C(=O)N[C@H]2C(=O)N[C@H]3C(=O)N[C@H](C(=O)N[C@H](C(=O)O)c4cc(O)cc(O)c4-c4cc3ccc4O)[C@H](O[C@H]3C[C@](C)(N)[C@@H](O)[C@H](C)O3)c3ccc(c(Cl)c3)Oc3cc2cc(c3O[C@@H]2O[C@H](CO)[C@@H](O)[C@H](O)[C@H]2O[C@H]2C[C@](C)(NCc3ccc(-c4ccc(Cl)cc4)cc3)[C@@H](O)[C@H](C)O2)Oc2ccc(cc2Cl)[C@H]1O | -1 |
| C=C1CCN([C@H](C)[C@](O)(Cn2cncn2)c2ccc(F)cc2F)CC1 | -8 |
| CCCCCCCCCCCCC/C=C/[C@@H](O)[C@@H](N)CO | -32 |
